# Measurements of several laboratories.
# ± gives the spread as reported.
SMILES,assay,system,setting,half-life
O=C1CCC(N2Cc3c(NC(=O)OCc4cc(C(=O)O)ccc4OP(=O)(O)O)cccc3C2=O)C(=O)N1 (stereo not shown),,simulated gastric fluid,"10 µM, 2 h incubation, pH 1.2",> 2 h
O=CC1C(=O)Nc2ccccc21 (stereo not shown),"chemical stability, HPLC-MS",borate buffered saline,"pH 10.2, no N-acetyl-lysine",154 h
O=C1CCC(N2C(=O)c3ccc(O)cc3C2=O)C(=O)N1 (stereo not shown),"D/H back-exchange, LC-HRMS",0.1 M phosphate buffer in water,"pH 7.4, 37 °C, mean of replicates",56 h
CC(=O)O[C@H]1C(=O)[C@@]2(C)[C@H]([C@H](OC(=O)c3ccccc3)[C@]3(O)C[C@H](OC(=O)[C@H](OCOP(=O)(O)O)[C@@H](NC(=O)c4ccccc4)c4ccccc4)C(C)=C1C3(C)C)[C@]1(OC(C)=O)CO[C@@H]1C[C@@H]2O,,HBSS,"10 µM, 2 h incubation, pH 6.5",> 2 h
CN1CCN(C(=S)N/N=C/c2ccccc2O)CC1,,plasma,"intravenous, 30 mg/kg",2.68 ± 1.54 h
CCn1c(C)c(Cc2ccc(Cl)c(O[C@H](C)C(=O)O)c2)c2ccc(C(=O)N[C@@H](C)c3ccc(C(C)(C)C)cc3)cc21,,mouse liver microsomes,"1 µM, together with: microsomes 1 mg/mL",> 1 h
O=C(Nc1cccc(C(=O)N2CCC(c3nc(-c4ccccc4)n[nH]3)CC2)c1)c1ccccc1,,human liver microsomes,"pH 7.4, together with: NADPH",> 2 h
O=Cc1cc(C(F)(F)F)ccc1B(O)O,"chemical stability, HPLC-MS",borate buffered saline,"pH 10.2, no N-acetyl-lysine",447 h
O=c1c(-c2cnn(-c3ccccc3)c2)c(C(F)(F)F)oc2c(O)c(O)ccc12,,rat plasma,,3.85 h
O=C(NC1CCC(F)(F)CC1)C(c1cncnc1)N(C(=O)C(F)Cl)c1ccc(-c2cncs2)cc1 (stereo not shown),,mouse liver microsomes,"concentration not given, pH 7.4",0.595 h
OB(O)c1sccc1/C=N/OCc1ccccc1,,PBS,"80 µM, pH 7.4, together with: fructose 1 equiv",2.05 h
C/C(N)=N/C(=N\S(=O)(=O)c1ccc(C(F)(F)F)cc1)N1C[C@H](c2ccccc2)C(c2ccc(Cl)cc2)=N1,,human liver cytosol,,> 2 h
N[C@@H](CC(=O)O)C(=O)OC(C(=O)O)c1ccc(Br)cc1[N+](=O)[O-] (mixture of isomers),"hydrolysis, 1H NMR","aqueous citrate-ammonium sulfate, 12.5% DMSO-d6","pH 4.2, room temperature, dark, isomer A",11.2 ± 0.2 h
CC(C)Cn1cc(Cc2cccc(OC(C)(C)C(=O)O)c2)c2ccc(C(=O)N[C@@H](C)c3cccc(C(C)(C)C)c3)c(F)c21,,human liver microsomes,,0.442 h
CCCCC=CC(=O)NC(Cc1cc(F)cc(F)c1)C(=O)NC1COC(=O)C2CCCN2C(=O)C(C)NC(=O)C(C)N(C)C(=O)C2CCCN2C1=O (stereo not shown),"H-D exchange, 1H NMR, measured: alanine amide hydrogen",CD3OD,25 °C,0.435 h
CSCc1cn(-c2cccc(C(=O)N3CCC(c4nc(-c5ccccc5)n[nH]4)CC3)c2)nn1,,human liver microsomes,"pH 7.4, together with: NADPH",0.07 h
CC1(C)OB(c2cc(C(F)(F)F)ccc2C=O)OC1(C)C,"chemical stability, HPLC-MS",BBS buffer with acetonitrile,pH 10.2,< 0.0167 h
Brc1ccncc1,,,pH 7.4,76.6 h
O=C=Nc1cc(C(F)(F)F)cc(C(F)(F)F)c1,"chemical stability, HPLC-MS",BBS buffer with acetonitrile,pH 10.2,< 0.0167 h
Cc1noc(C)c1C#N,,,pH 7.4,178 h
O=C(N1CCCCC1)C12CC(c3ccccc3)(C1)C2,metabolic stability,pooled human liver microsomes,"2 µM, pH 7.4",1.17 h
N=C(N)NCCC[C@@H]1NC(=O)[C@H](CO)NC(=O)[C@@H](NC(=O)[C@H](CO)NC(=O)[C@H](CO)NC(=O)[C@H](Cc2c[nH]c3ccccc23)NC(=O)CNC(=O)[C@H](CO)NC(=O)[C@@H](N)Cc2c[nH]c3ccccc23)CSSC[C@@H](C(=O)NCC(=O)O)NC(=O)[C@H](CO)NC1=O,,"patients, plasma","intravenous, 10 mg/kg, thrice weekly, geometric mean",0.284 h
Cc1c(Cc2cccc(OC(C)(C)C(=O)O)c2)c2ccc(C(=O)N[C@@H](C)c3ccc(C(C)(C)C)cc3)cc2n1CC1CCC1,,mouse liver microsomes,"1 µM, together with: microsomes 1 mg/mL",> 1 h
O=Cc1cc(OCc2ccccc2)ccc1B(O)O,"reactivity with N-α-acetyl-lysine, HPLC-MS",,pH 10.2,35.4 h
Cc1c(Cc2cccc(OC(C)(C)C(=O)O)c2)c2ccc(C(=O)N[C@@H](C)c3cccc(C(C)(C)C)c3)cc2n1CC(C)C,,mouse liver microsomes,"1 µM, together with: microsomes 1 mg/mL",> 1 h
O=C(O)c1ccc(OP(=O)(O)O)c(CN2CCC(=C3c4ccc(Cl)cc4CCc4cccnc43)CC2)c1,,HBSS,"10 µM, 2 h incubation, pH 6.5",> 2 h
CN(Cc1cc(C2CC2)on1)C(=O)c1cccc(-c2ccc(F)cc2)c1,,human liver microsomes,"2 µM, pH 7.5, without 1-aminobenzotriazole",1.39 h
CCC[C@H]1C(=O)N(C)[C@@H](CCC)C(=O)N[C@@H](CC(C)C)C(=O)N[C@@H](Cc2ccc(O)cc2)C(=O)N[C@@H](CC(=O)O)C(=O)N[C@@H](CC(=O)O)C(=O)N[C@H](C(N)=O)CCCCNC(=O)CCCC(=O)N[C@@H](CCSC)C(=O)N[C@@H](C(C)C)C(=O)N[C@@H](CS)C(=O)N1C,,"human serum, delipidated, reconstituted","238 µM, 37 °C",~93.3 h
CCC(=O)N[C@@H](C)C(=O)OCC(=O)N[C@@H](C)C(=O)O,depolymerisation,,"pH 6, 65 °C",25 to 30 h
Cc1c(Cc2ccc(Cl)c(OC(C)C(=O)O)c2)c2ccc(C(=O)NC(C)c3ccc(C(C)(C)C)cc3)cc2n1CC1CC1 (stereo not shown),,mouse liver microsomes,"1 µM, together with: microsomes 1 mg/mL",> 1 h
CCCC/C=C/C(=O)N[C@@H](Cc1cc(F)cc(F)c1)C(=O)N[C@@H]1C(=O)N2CCC[C@H]2C(=O)N2CC[C@H](C)C[C@H]2C(=O)N[C@@H](C)C(=O)N2CCC[C@H]2C(=O)O[C@H]1C,"H-D exchange, 1H NMR, measured: alanine amide hydrogen",CD3OD,25 °C,19.7 h
C=CC(=O)Nc1cccc(Cn2ncc3cnc(Nc4cnn(CCOC)c4)nc32)c1,,Beagle dog whole blood,5 µM,1.76 h
Cc1c(Cc2ccc(Cl)c(O[C@H](C)C(=O)O)c2)c2ccc(C(=O)N[C@@H](C)c3ccc(C(C)(C)C)cc3)cc2n1C,,mouse liver microsomes,"1 µM, together with: microsomes 1 mg/mL",> 1 h
O=C(C(=O)c1ccccc1)C(=O)c1ccccc1,"chemical stability, HPLC-MS",BBS buffer with acetonitrile,pH 10.2,< 0.0167 h
O=C(N1CCCCC1)C12CC(c3ccccc3)(C1)C2(F)F,metabolic stability,human liver microsomes,"2 µM, pH 7.4",1.43 h
CCN(CC)c1ccc2c(c1)O[B-]1(c3ccccc3C#N)OC(=O)C(c3ccccc3)=N[N+]1=C2CC(C)C (stereo not shown),,DMEM with ammonium acetate,"10 µM, pH 7, 2% DMSO, cell-free",128 h
O=Cc1ccc2cccc(O)c2n1,"chemical stability, HPLC-MS",borate buffered saline,"pH 10.2, no N-acetyl-lysine",114 h
Cc1c(Cc2cc(F)cc(OC(C)(C)C(=O)O)c2)c2ccc(C(=O)N[C@@H](C)c3ccc(C(C)(C)C)cc3)cc2n1CC1CCC1,,mouse liver microsomes,"1 µM, together with: microsomes 1 mg/mL",> 1 h
CC(C)C[C@H](NC(=O)[C@H](Cc1ccc(O)cc1)NC(=O)[C@H](CC(N)=O)NC(=O)[C@H](CO)NC(=O)[C@H](CCCNC(=N)N)NC(=O)[C@H](Cc1ccc(O)cc1)NC(=O)CNC(=O)[C@H](CCCNC(=N)N)NC(=O)[C@H](Cc1c[nH]cn1)NC(=O)[C@H](CO)NC(=O)[C@H](Cc1c[nH]cn1)NC(=O)[C@H](Cc1c[nH]cn1)NC(=O)[C@H](CCCCN)NC(=O)[C@H](CCC(=O)O)NC(=O)[C@H](Cc1c[nH]cn1)NC(=O)[C@H](Cc1ccccc1)NC(=O)[C@H](CCCCN)NC(=O)[C@H](CCCNC(=N)N)NC(=O)[C@H](CCCCN)NC(=O)[C@H](Cc1ccc(O)cc1)NC(=O)CNC(=O)[C@H](Cc1c[nH]cn1)NC(=O)[C@H](Cc1c[nH]cn1)NC(=O)[C@H](CCCNC(=N)N)NC(=O)[C@H](CCCCN)NC(=O)[C@H](C)NC(=O)[C@H](Cc1c[nH]cn1)NC(=O)[C@H](CO)NC(=O)[C@@H](N)CC(=O)O)C(=O)N[C@@H](Cc1ccc(O)cc1)C(=O)N[C@@H](CC(=O)O)C(=O)N[C@@H](CC(N)=O)C(=O)O,,human parotid secretion,"37 °C, median",6 h
Clc1cnccn1,,,pH 7.4,77.1 h
Cc1ccc(C(C)C)cc1.O=C(N=P12CN3CN(CN(C3)C1)C2)c1[c-]cccc1.[Cl-].[Ru+2],,DMSO-d6,,~1 weeks
COc1ccc2c(c1)C(=O)C(=C[O-])C2.[Na+],"chemical stability, HPLC-MS",borate buffered saline,"pH 10.2, no N-acetyl-lysine",35.4 h
C=Cn1cccn1,,,pH 7.4,74.5 h
N=C(N)NCCC[C@@H]1NC(=O)[C@H](CCCNC(=N)N)NC(=O)[C@@H](C(c2ccccc2)c2ccccc2)NC(=O)[C@H](Cc2c[nH]c3ccccc23)NC(=O)[C@@H](C(c2ccccc2)c2ccccc2)NC(=O)[C@@H](CCCNC(=N)N)NC(=O)[C@@H](CCCNC(=N)N)NC1=O,LC-MS,human plasma,,≥ 6 h
Cc1c(Cc2ccc(Cl)c(OC(C)C(=O)O)c2)c2ccc(C(=O)NC(C)c3ccc(C(C)(C)C)cc3)cc2n1CC1CCC1 (stereo not shown),,mouse liver microsomes,"1 µM, together with: microsomes 1 mg/mL",> 1 h
Brc1nccs1,,,pH 7.4,45.5 h

# Some of these lines once more:
SMILES,assay,system,setting,half-life
Brc1nccs1,,,pH 7.4,45.5 h
Clc1cnccn1,,,pH 7.4,77.1 h
O=C=Nc1cc(C(F)(F)F)cc(C(F)(F)F)c1,"chemical stability, HPLC-MS",BBS buffer with acetonitrile,pH 10.2,< 0.0167 h
N[C@@H](CC(=O)O)C(=O)OC(C(=O)O)c1ccc(Br)cc1[N+](=O)[O-] (mixture of isomers),"hydrolysis, 1H NMR","aqueous citrate-ammonium sulfate, 12.5% DMSO-d6","pH 4.2, room temperature, dark, isomer A",11.2 ± 0.2 h
O=Cc1cc(OCc2ccccc2)ccc1B(O)O,"reactivity with N-α-acetyl-lysine, HPLC-MS",,pH 10.2,35.4 h
N=C(N)NCCC[C@@H]1NC(=O)[C@H](CO)NC(=O)[C@@H](NC(=O)[C@H](CO)NC(=O)[C@H](CO)NC(=O)[C@H](Cc2c[nH]c3ccccc23)NC(=O)CNC(=O)[C@H](CO)NC(=O)[C@@H](N)Cc2c[nH]c3ccccc23)CSSC[C@@H](C(=O)NCC(=O)O)NC(=O)[C@H](CO)NC1=O,,"patients, plasma","intravenous, 10 mg/kg, thrice weekly, geometric mean",0.284 h
O=Cc1cc(C(F)(F)F)ccc1B(O)O,"chemical stability, HPLC-MS",borate buffered saline,"pH 10.2, no N-acetyl-lysine",447 h
